# Experimental data from different studies.
# Protocols differ between the studies behind these lines. ± gives the spread as reported.
Structure (SMILES),host,matrix,route,dose,time,notes,tissue uptake [%ID/g]
N=C(N)NCCC[C@@H]1NC(=O)[C@H](CCCCNC(=O)CCOCCOCCOCCOCCNC(=O)CC[C@H](NC(=O)[C@H](CCCCNC(=O)c2ccc(NN)nc2)NC(=O)c2ccc(NN)nc2)C(=O)NCCOCCOCCOCCOCCC(=O)NCCCC[C@@H]2NC(=O)[C@@H](Cc3ccccc3)NC(=O)[C@H](CC(=O)O)NC(=O)CNC(=O)[C@H](CCCNC(=N)N)NC2=O)NC(=O)[C@@H](Cc2ccccc2)NC(=O)[C@H](CC(=O)O)NC(=O)CNC1=O [technetium-99m labelled],female athymic nude mice,heart,intravenous,0.1 MBq,1 h,U-87 MG glioma xenograft,1.28 ± 0.3
CSCC[C@H](NC(=O)[C@H](CC(C)C)NC(=O)[C@H](Cc1c[nH]cn1)NC(=O)CNC(=O)[C@@H](NC(=O)[C@H](C)NC(=O)[C@H](Cc1c[nH]c2ccccc12)NC(=O)[C@H](CCC(N)=O)NC(=O)CCCCCCCNC(=O)CCC(=O)Nc1ccc(CNC23CNCCNCC(N)(CNCCNC2)CNCCNC3)cc1)C(C)C)C(N)=O [copper-64 labelled],"female SCID mice, PC-3 xenograft",lung,intravenous,0.6 MBq,24 h,,0.367 ± 0.026
N=C(N)NCCC[C@@H]1NC(=O)[C@H](CCCCNC(=O)CC[C@H](NC(=O)CCOCCOCCOCCOCCNC(=O)CN2CCN(CC(=O)O)CCN(CC(=O)O)CCN(CC(=O)O)CC2)C(=O)NCCCC[C@@H]2NC(=O)[C@@H](Cc3ccccc3)NC(=O)[C@H](CC(=O)O)NC(=O)CNC(=O)[C@H](CCCNC(=N)N)NC2=O)NC(=O)[C@@H](Cc2ccccc2)NC(=O)[C@H](CC(=O)O)NC(=O)CNC1=O [indium-111 labelled],female athymic nude mice,muscle,intravenous,3 µCi,1 h,U-87 MG glioma xenograft,0.8 ± 0.24
CC(C)C[C@H](NC(=O)[C@H](Cc1ccc(O)cc1)NC(=O)[C@@H](CCCNC(=N)N)NC(=O)[C@@H](CO)NC(=O)[C@H](Cc1ccccc1)NC(=O)[C@H](CC1CCCCC1)NC(=O)[C@H](CC(=O)O)NC(=O)CCC(C(=O)O)N1CCCN2CCN(CCCN(CC(=O)O)CC2)CC1)C(=O)N[C@@H](Cc1c[nH]c2ccccc12)C(=O)N[C@@H](CO)C(=O)O (stereo partly drawn) [copper-64 labelled],female NMRI nude mice,spleen,,,22 h p.i.,,2.7 ± 0.3
N=C(N)NCCC[C@@H]1NC(=O)[C@H](CCCCNC(=O)CCOCCOCCOCCOCCNC(=O)CN2CCN(CC(=O)O)CCN(CC(=O)O)CCN(CC(=O)O)CC2)NC(=O)[C@@H](Cc2ccccc2)NC(=O)[C@H](CC(=O)O)NC(=O)CNC1=O [indium-111 labelled],female athymic nude mice,eyes,intravenous,3 µCi,1 h,U-87 MG glioma xenograft,0.48 ± 0.2
N=C(N)NCCC[C@@H]1NC(=O)[C@H](CCCCNC(=O)CNC(=O)CNC(=O)CNC(=O)CC[C@H](NC(=O)CNC(=O)CNC(=O)CNC(=O)[C@H](CCCCNC(=O)c2ccc(NN)nc2)NC(=O)c2ccc(NN)nc2)C(=O)NCC(=O)NCC(=O)NCC(=O)NCCCC[C@@H]2NC(=O)[C@@H](Cc3ccccc3)NC(=O)[C@H](CC(=O)O)NC(=O)CNC(=O)[C@H](CCCNC(=N)N)NC2=O)NC(=O)[C@@H](Cc2ccccc2)NC(=O)[C@H](CC(=O)O)NC(=O)CNC1=O [technetium-99m labelled],female athymic nude mice,heart,intravenous,0.1 MBq,1 h,U-87 MG glioma xenograft,1.06 ± 0.22
N=C(N)NCCC[C@@H]1NC(=O)[C@H](CCCCNC(=O)CNC(=O)CNC(=O)CNC(=O)CC[C@H](NC(=O)CCOCCOCCOCCOCCNC(=O)CC[C@H](NC(=O)CN2CCN(CC(=O)O)CCN(CC(=O)O)CCN(CC(=O)O)CC2)C(=O)NCCOCCOCCOCCOCCC(=O)N[C@@H](CCC(=O)NCC(=O)NCC(=O)NCC(=O)NCCCC[C@@H]2NC(=O)[C@@H](Cc3ccccc3)NC(=O)[C@H](CC(=O)O)NC(=O)CNC(=O)[C@H](CCCNC(=N)N)NC2=O)C(=O)NCC(=O)NCC(=O)NCC(=O)NCCCC[C@@H]2NC(=O)[C@@H](Cc3ccccc3)NC(=O)[C@H](CC(=O)O)NC(=O)CNC(=O)[C@H](CCCNC(=N)N)NC2=O)C(=O)NCC(=O)NCC(=O)NCC(=O)NCCCC[C@@H]2NC(=O)[C@@H](Cc3ccccc3)NC(=O)[C@H](CC(=O)O)NC(=O)CNC(=O)[C@H](CCCNC(=N)N)NC2=O)NC(=O)[C@@H](Cc2ccccc2)NC(=O)[C@H](CC(=O)O)NC(=O)CNC1=O [indium-111 labelled],female athymic nude mice,kidney,intravenous,3 µCi,1 h,U-87 MG glioma xenograft,5.57 ± 0.63
N=C(N)NCCC[C@@H]1NC(=O)[C@H](CCCCNC(=O)CCOCCOCCOCCOCCNC(=O)CC[C@H](NC(=O)CCOCCOCCOCCOCCNC(=O)[C@H](CCCCNC(=O)c2ccc(NN)nc2)NC(=O)c2ccc(NN)nc2)C(=O)NCCOCCOCCOCCOCCC(=O)NCCCC[C@@H]2NC(=O)[C@@H](Cc3ccccc3)NC(=O)[C@H](CC(=O)O)NC(=O)CNC(=O)[C@H](CCCNC(=N)N)NC2=O)NC(=O)[C@@H](Cc2ccccc2)NC(=O)[C@H](CC(=O)O)NC(=O)CNC1=O [technetium-99m labelled],female athymic nude mice,heart,intravenous,0.1 MBq,1 h,U-87 MG glioma xenograft,1.12 ± 0.18
CSCC[C@H](NC(=O)[C@H](CC(C)C)NC(=O)[C@H](Cc1c[nH]cn1)NC(=O)CNC(=O)[C@@H](NC(=O)[C@H](C)NC(=O)[C@H](Cc1c[nH]c2ccccc12)NC(=O)[C@H](CCC(N)=O)NC(=O)CNC(=O)[C@H](CO)NC(=O)CNC(=O)CCCCCCCNC(=O)CCC(=O)Nc1ccc(CNC23CNCCNCC(N)(CNCCNC2)CNCCNC3)cc1)C(C)C)C(N)=O [copper-64 labelled],"female SCID mice, PC-3 xenograft",bone,intravenous,0.6 MBq,4 h,,0.533 ± 0.022

# A few entries again:
Structure (SMILES),host,matrix,route,dose,time,notes,tissue uptake [%ID/g]
N=C(N)NCCC[C@@H]1NC(=O)[C@H](CCCCNC(=O)CC[C@H](NC(=O)CCOCCOCCOCCOCCNC(=O)CN2CCN(CC(=O)O)CCN(CC(=O)O)CCN(CC(=O)O)CC2)C(=O)NCCCC[C@@H]2NC(=O)[C@@H](Cc3ccccc3)NC(=O)[C@H](CC(=O)O)NC(=O)CNC(=O)[C@H](CCCNC(=N)N)NC2=O)NC(=O)[C@@H](Cc2ccccc2)NC(=O)[C@H](CC(=O)O)NC(=O)CNC1=O [indium-111 labelled],female athymic nude mice,muscle,intravenous,3 µCi,1 h,U-87 MG glioma xenograft,0.8 ± 0.24
